Results gathered from unrelated publications.
Every numbered part comes from another study and shows a few of its results, in no order. Changes are numbered by the printed parent chain.
Chain of UniProt P9WI81 (whole entry, looked up): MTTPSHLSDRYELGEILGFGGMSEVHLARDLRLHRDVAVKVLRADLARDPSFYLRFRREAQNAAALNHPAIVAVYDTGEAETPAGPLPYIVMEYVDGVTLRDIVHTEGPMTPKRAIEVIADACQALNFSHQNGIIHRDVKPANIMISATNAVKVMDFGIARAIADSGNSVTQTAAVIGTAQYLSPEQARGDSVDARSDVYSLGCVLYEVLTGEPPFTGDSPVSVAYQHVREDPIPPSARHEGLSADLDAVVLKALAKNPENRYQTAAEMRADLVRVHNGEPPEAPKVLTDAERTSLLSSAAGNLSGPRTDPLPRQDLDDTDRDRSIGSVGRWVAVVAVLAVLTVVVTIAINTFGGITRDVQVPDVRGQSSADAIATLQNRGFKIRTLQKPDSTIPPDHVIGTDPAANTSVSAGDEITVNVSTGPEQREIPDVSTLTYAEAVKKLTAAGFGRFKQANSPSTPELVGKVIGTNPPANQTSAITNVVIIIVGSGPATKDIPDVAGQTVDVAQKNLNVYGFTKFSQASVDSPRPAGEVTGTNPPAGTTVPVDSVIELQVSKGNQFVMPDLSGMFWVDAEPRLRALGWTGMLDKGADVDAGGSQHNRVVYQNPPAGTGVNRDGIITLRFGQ
Chain of UniProt P51813 (whole entry, looked up): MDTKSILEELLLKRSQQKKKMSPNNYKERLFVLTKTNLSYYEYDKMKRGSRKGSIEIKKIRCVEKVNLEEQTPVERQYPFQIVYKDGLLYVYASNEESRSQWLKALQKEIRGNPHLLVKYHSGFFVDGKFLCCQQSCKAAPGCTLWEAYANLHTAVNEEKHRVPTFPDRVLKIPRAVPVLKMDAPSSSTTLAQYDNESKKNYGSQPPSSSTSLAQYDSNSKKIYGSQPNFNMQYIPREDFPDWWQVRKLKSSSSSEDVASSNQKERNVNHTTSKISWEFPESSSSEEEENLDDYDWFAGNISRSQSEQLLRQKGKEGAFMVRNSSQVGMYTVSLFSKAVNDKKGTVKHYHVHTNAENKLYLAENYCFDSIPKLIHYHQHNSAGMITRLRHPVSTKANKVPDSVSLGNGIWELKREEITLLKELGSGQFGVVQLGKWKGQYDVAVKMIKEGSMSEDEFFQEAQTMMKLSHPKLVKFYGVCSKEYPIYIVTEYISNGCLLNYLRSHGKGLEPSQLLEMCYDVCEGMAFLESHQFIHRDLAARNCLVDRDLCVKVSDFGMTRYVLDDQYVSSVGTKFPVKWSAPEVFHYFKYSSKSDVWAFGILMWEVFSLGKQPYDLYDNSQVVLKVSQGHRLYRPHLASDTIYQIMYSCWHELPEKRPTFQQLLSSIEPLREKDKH

Set 1
Target: CCNA1, cyclin fold, Cln2 fusion (human)
Technique: yeast growth competition, sequencing
Sample: yeast
Setting: weak parent motif
Reference: not given
Direction: higher = stronger binding
Starting sequence: viral docking peptide; KGVKRKLFAEDSS; partner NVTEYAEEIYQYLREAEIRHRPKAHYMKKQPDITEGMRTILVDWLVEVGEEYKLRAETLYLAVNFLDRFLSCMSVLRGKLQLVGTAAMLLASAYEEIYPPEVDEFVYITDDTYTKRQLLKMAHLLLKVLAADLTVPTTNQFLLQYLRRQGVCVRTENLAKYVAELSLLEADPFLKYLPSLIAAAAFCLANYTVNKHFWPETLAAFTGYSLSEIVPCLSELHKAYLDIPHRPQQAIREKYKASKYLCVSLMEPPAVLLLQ
Variant | normalised enrichment score
E10K | 0.165
G2V | 1.48
E10Q | 0.642
E10W | -0.266
D11H | 0.969
D11V | 0.684
G2E | 0.973
K4L | 0.0372

Set 2
Target: HLA class I histocompatibility antigen, C alpha chain, allele C*04:01 (Homo sapiens, UniProt P10321)
Effect on: peptide-MHC binding
Molecule type: peptide
Concentration: concentration not given
Molecule | binding
HEVNGTWMI | inactive
RTWFYRTEF | inactive
GMMRWCMPV | inactive
YRYCHQLAL | inactive
IPVHPRHPY | inactive
RWRWFRAAM | inactive
RRAALSGHL | inactive
YYLIKYLHV | inactive

Other studies, line by line
SMILES | target | assay | setting | how to read | quantity | value
O=C1NC(=O)c2c1c1c3ccccc3n3c1c1c2c2ccccc2n1[C@H]1CC[C@@H]3O1 | BMX (Homo sapiens, UniProt P51813) | enzyme activity, inhibitor | 0.5 µM | reference: control | remaining activity | 27.5%
O=C(N1CCS(=O)(=O)CC1)N1C[C@H](c2ccc(OC(F)(F)F)cc2)C[C@H](c2nc(C3CC3)no2)C1 | pknB (Mycobacterium tuberculosis, UniProt P9WI81) | cell-free assay, competition with immobilised ligand | 1 µM |  | remaining binding | 100%
